Experimental data gathered from unrelated publications.
A part holds a random share of what one study measured. Several values in a cell are separate wells, animals, samples, runs or records. Changes are numbered by the printed parent chain.
Chain of UniProt O94804 (whole entry, looked up): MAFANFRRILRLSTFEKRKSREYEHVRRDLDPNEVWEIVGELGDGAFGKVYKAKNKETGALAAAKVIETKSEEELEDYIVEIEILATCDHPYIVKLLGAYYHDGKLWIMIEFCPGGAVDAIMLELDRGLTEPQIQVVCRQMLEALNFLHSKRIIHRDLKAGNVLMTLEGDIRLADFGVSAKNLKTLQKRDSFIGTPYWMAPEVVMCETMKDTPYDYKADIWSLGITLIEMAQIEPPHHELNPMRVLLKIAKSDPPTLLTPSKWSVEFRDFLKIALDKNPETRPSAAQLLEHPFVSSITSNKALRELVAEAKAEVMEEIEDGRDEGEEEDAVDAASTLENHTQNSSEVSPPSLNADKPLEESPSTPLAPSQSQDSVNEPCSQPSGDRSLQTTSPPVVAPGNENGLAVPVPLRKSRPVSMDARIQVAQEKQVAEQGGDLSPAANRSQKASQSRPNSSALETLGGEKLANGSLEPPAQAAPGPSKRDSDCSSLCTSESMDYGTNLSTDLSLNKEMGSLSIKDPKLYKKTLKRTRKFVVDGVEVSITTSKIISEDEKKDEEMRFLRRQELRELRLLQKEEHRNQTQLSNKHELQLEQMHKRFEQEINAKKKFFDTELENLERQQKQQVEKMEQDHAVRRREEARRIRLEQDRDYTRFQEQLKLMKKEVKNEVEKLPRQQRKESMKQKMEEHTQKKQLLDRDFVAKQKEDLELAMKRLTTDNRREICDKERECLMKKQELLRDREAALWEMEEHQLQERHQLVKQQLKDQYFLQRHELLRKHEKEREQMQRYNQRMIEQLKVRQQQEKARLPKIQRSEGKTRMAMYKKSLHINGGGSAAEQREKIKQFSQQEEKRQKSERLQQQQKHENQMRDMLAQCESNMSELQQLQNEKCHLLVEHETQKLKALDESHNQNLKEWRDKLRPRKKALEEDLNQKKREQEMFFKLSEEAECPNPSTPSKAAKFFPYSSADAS

Series 1
Target: BATF3, bZIP domain (human)
Method: DHFR protein complementation
Sample: yeast
Setting: single substitutions, most at no-binding floor
Relative to: wild-type JUN-FOS pair
Direction: higher = stronger binding
Parent: JUN, bZIP domain (human); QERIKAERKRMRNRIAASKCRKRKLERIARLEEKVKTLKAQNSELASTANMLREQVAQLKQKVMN; partner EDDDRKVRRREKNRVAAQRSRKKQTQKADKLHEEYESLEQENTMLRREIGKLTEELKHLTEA
Substitution | binding fitness
E33P | -0.18 natural log
N42W | -0.0982 natural log
A29K | 0.0886 natural log
E44N | 0.139 natural log
Q55R | 0.239 natural log
L59V | 0.433 natural log
N42A | -0.164 natural log
L45C | -0.165 natural log

Series 2
Target: Homeobox protein Hox-B13, full length (HOXB13, Homo sapiens, UniProt Q92826, residues 1-284)
Chain of UniProt Q92826 (whole entry, looked up): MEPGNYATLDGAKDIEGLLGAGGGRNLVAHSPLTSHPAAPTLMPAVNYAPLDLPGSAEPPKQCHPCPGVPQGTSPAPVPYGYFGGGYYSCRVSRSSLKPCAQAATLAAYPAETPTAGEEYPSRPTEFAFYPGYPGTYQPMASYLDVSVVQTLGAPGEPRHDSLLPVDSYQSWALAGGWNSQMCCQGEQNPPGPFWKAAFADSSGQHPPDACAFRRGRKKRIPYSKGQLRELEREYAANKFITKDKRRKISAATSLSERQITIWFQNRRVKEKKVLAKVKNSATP
Method: protein-binding microarray
Form: hairpin DNA
Sample: in vitro
Tested at: not given
Setting: whole hairpin DNA, median over replicate spots
Relative to: not given
Direction: higher = stronger binding
All sequences stand within: GAGGCCG … CGGCCTCACACTC
Oligonucleotide | median fluorescence
TTTTATCGGGGCCTCCTGGCCCCGATAAAA (5mC at 14 30) | 4220 a.u.
CGTTATTGGGGCCTCCTGGCCCCAATAACG (5mC at 36) | 4290 a.u.
TTTTAAGAGGGCCTCCTGGCCCTCTTAAAA | 4100 a.u.
TTTTATGGGGGCCTCCTGGCCCCCATAAAA | 4960 a.u.
ATTTACGAGGGCCTCCTGGCCCTCGTAAAT | 5140 a.u.
GTTTATTGGGGCCTCCTGGCCCCAATAAAC | 4930 a.u.
TTTCGTTGGGGCCTCCTGGCCCCAACGAAA | 4010 a.u.
TTTCGTTGGGGCCTCCTGGCCCCAACGAAA (5mC at 11 33) | 4200 a.u.

Mixed results
SMILES | tested on | assay | system | conditions | scale | measurement | result
O=C(COc1ccccc1P(=O)(O)O)NCC(F)(F)c1cccc(F)c1 | human islets | qPCR, refers to: USP8 |  | concentration not given, unit not given, with: high glucose (20 mM) | relative to: low glucose control | mRNA level | 0.938 and 1.36 and 0.664 and 1.12
O=C1Nc2ccc(Cl)cc2[C@@](C#CC2CC2)(C(F)(F)F)O1 | Sarcocystis neurona | parasite growth |  | 10 µM, 96 h | relative to: untreated | log2 fold change | -0.32
Cc1nc(Cc2cccc(C(F)(F)F)c2)sc1-c1ccc(C(N)=O)nc1 | STK10 (Homo sapiens, UniProt O94804) | cell-free assay, competition with immobilised ligand |  | 1 µM |  | remaining binding | 100%
CC[C@@]1(O)C(=O)OCc2c1cc1n(c2=O)Cc2cc3c(CN(C)C)c(O)ccc3nc2-1 | Sarcocystis neurona | parasite growth |  | 10 µM, 96 h | relative to: untreated | log2 fold change | 0.32
CCC[C@@H]1NC(=O)CSC[C@@H](C(=O)OCC)N(C)C(=O)[C@H](CC(C)C)NC(=O)[C@@H](C)N(C)C(=O)[C@H](CC(C)C)NC(=O)[C@H](C)N(C)C(=O)[C@@H]2CCCN2C(=O)[C@H](CC(C)C)NC(=O)CN(CCC)C1=O |  |  | hydrocarbon/water |  |  | logD | 1.07

Some of these lines once more (mixed results):
SMILES | tested on | assay | system | conditions | scale | measurement | result
O=C1Nc2ccc(Cl)cc2[C@@](C#CC2CC2)(C(F)(F)F)O1 | Sarcocystis neurona | parasite growth |  | 10 µM, 96 h | relative to: untreated | log2 fold change | -0.32
Cc1nc(Cc2cccc(C(F)(F)F)c2)sc1-c1ccc(C(N)=O)nc1 | STK10 (Homo sapiens, UniProt O94804) | cell-free assay, competition with immobilised ligand |  | 1 µM |  | remaining binding | 100%
CC[C@@]1(O)C(=O)OCc2c1cc1n(c2=O)Cc2cc3c(CN(C)C)c(O)ccc3nc2-1 | Sarcocystis neurona | parasite growth |  | 10 µM, 96 h | relative to: untreated | log2 fold change | 0.32
